Measurements gathered from unrelated publications.
Compare with care: the assays were run in different laboratories. “And” joins repeats or separate records; there may be more than shown. ± gives the spread as reported.
PSMB6: Proteasome subunit beta type-6 (PSMB6, Homo sapiens, UniProt P28072)
Sequence of UniProt P28072 (whole entry, looked up): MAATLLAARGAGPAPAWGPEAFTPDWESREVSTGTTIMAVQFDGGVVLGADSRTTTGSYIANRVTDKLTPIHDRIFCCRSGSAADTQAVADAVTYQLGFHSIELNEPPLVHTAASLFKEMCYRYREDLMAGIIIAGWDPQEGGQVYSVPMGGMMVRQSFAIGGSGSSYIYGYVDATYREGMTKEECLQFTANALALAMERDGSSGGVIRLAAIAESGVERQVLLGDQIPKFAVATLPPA
CA1: Carbonic anhydrase 1 (CA1, Homo sapiens, UniProt P00915)
Sequence of UniProt P00915 (whole entry, looked up): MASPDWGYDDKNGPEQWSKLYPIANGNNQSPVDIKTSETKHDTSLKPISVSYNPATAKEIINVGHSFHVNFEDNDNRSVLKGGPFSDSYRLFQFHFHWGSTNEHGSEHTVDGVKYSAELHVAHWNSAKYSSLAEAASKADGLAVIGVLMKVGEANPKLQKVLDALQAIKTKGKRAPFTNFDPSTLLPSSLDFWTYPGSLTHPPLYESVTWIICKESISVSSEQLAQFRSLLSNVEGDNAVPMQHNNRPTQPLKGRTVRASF
YES1: Tyrosine-protein kinase Yes (YES1, Homo sapiens, UniProt P07947)
PLA2G5: Phospholipase A2 group V (PLA2G5, Homo sapiens, UniProt P39877)
Sequence of UniProt P39877 (whole entry, looked up): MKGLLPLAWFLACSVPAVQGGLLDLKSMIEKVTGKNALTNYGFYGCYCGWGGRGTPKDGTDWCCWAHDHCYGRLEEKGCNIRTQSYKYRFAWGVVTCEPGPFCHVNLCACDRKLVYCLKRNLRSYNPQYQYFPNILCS
Toll-like receptor 3: Toll-like receptor 3 (Homo sapiens, UniProt O15455)
Sequence of UniProt O15455 (whole entry, looked up): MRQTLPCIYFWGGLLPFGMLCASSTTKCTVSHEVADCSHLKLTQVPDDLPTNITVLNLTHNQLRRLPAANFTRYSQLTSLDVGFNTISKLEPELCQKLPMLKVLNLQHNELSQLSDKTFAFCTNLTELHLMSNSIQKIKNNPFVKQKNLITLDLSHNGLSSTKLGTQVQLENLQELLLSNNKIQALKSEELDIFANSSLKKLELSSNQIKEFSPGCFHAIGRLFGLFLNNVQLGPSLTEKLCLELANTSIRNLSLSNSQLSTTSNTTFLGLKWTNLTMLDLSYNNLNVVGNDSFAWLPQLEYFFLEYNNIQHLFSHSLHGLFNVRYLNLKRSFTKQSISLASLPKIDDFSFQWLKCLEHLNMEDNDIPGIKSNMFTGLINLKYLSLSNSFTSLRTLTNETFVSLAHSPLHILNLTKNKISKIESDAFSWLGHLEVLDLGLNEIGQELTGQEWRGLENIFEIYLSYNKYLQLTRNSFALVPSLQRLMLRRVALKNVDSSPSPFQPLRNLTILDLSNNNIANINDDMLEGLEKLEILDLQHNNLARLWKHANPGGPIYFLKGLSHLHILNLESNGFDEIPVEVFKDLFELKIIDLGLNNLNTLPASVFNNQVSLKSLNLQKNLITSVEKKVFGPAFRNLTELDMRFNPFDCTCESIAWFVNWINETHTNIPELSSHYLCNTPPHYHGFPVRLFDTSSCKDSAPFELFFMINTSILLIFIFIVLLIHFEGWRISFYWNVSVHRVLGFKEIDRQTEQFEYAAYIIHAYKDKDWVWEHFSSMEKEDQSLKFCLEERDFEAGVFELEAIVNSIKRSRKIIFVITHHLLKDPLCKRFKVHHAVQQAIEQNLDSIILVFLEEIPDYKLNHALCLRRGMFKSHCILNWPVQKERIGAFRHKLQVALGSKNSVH
ABCG2: Broad substrate specificity ATP-binding cassette transporter ABCG2 (ABCG2, Homo sapiens, UniProt Q9UNQ0)
Sequence of UniProt Q9UNQ0 (whole entry, looked up): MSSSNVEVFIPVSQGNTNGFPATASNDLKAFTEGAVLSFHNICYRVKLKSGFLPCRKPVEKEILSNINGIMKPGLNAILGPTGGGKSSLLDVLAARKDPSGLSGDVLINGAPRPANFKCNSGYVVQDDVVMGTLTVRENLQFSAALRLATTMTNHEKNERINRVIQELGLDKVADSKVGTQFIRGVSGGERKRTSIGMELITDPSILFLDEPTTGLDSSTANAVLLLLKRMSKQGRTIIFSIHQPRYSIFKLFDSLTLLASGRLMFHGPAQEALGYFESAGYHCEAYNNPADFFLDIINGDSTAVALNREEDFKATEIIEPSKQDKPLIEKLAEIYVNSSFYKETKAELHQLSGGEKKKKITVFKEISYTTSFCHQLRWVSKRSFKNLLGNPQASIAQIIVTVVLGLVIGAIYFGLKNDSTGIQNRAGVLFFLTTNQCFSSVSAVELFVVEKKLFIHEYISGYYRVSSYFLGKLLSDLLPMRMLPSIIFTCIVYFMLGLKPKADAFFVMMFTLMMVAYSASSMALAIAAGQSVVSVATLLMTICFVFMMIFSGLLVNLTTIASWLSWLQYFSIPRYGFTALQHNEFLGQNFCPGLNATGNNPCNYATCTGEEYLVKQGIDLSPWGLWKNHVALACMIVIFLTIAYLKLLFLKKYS
Ubiquitin carboxyl-terminal hydrolase 39 ZnF-UBD domain: Ubiquitin carboxyl-terminal hydrolase 39, ZnF-UBD domain (Homo sapiens, UniProt Q53GS9)
Sequence of UniProt Q53GS9 (whole entry, looked up): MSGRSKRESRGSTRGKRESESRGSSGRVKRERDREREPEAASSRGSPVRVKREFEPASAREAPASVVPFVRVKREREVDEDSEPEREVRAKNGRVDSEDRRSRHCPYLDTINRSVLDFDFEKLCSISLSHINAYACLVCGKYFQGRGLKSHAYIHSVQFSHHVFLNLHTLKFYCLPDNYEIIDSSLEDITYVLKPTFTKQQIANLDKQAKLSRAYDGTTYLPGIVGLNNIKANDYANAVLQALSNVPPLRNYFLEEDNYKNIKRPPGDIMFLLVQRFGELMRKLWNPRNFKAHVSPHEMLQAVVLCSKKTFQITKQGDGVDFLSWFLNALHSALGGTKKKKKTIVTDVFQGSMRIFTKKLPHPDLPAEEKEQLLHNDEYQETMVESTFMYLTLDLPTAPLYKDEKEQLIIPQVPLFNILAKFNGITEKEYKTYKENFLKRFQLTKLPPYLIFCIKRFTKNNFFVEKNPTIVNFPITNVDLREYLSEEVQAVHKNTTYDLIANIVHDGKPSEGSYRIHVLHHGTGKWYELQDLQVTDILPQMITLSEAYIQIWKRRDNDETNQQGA
KCNH2: Voltage-gated inwardly rectifying potassium channel KCNH2 (KCNH2, Homo sapiens, UniProt Q12809)
Sequence of UniProt Q12809 (whole entry, looked up): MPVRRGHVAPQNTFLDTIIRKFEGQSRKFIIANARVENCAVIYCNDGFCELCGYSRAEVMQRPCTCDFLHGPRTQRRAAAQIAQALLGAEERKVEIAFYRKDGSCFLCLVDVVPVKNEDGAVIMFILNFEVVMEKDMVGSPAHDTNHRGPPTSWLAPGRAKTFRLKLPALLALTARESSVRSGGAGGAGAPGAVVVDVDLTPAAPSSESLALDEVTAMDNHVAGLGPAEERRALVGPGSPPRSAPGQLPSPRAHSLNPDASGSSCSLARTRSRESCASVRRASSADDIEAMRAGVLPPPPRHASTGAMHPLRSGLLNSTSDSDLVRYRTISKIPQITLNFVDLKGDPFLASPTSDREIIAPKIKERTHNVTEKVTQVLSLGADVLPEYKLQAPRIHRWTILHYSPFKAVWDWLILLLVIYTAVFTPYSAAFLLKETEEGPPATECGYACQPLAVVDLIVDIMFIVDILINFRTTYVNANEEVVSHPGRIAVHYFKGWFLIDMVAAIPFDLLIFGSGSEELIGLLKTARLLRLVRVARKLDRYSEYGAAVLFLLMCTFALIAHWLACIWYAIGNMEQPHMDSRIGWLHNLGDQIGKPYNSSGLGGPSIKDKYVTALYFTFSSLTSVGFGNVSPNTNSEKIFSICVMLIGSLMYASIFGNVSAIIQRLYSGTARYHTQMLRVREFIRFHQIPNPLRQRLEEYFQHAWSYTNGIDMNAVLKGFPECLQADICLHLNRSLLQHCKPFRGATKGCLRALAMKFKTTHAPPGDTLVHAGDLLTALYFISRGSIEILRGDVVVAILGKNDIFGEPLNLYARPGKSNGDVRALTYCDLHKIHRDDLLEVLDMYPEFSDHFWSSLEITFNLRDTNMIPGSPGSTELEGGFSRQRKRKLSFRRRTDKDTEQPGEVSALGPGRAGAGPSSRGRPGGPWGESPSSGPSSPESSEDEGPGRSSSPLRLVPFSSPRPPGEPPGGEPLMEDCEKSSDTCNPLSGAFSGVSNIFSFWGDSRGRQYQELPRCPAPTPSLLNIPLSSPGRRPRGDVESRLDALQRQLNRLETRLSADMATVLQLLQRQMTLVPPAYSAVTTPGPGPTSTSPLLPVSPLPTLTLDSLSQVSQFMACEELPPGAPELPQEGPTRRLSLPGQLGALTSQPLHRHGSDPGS
Sequence of UniProt P02708 (whole entry, looked up): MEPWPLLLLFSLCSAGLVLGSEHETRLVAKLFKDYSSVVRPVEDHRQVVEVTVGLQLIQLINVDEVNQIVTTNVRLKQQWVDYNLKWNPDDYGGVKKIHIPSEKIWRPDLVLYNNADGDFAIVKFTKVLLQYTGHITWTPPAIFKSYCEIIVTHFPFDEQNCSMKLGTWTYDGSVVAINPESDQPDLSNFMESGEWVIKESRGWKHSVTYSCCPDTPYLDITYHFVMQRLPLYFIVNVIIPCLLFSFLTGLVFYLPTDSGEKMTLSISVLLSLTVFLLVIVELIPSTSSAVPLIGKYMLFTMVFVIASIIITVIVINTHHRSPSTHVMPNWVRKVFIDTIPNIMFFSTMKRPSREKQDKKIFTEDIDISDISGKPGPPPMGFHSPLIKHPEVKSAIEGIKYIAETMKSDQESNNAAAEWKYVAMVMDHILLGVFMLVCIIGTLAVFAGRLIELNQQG
Sequence of UniProt P00346 (whole entry, looked up): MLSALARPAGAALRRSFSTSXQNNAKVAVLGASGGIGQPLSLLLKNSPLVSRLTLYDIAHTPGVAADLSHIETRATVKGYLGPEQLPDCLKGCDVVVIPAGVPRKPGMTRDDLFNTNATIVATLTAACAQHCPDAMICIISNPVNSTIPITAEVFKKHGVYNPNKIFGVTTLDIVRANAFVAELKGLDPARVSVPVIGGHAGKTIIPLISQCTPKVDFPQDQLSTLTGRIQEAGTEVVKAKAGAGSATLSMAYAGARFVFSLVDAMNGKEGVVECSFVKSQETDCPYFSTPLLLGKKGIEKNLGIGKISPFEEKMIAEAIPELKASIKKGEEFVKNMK
Sequence of UniProt P38075 (whole entry, unmodified, looked up): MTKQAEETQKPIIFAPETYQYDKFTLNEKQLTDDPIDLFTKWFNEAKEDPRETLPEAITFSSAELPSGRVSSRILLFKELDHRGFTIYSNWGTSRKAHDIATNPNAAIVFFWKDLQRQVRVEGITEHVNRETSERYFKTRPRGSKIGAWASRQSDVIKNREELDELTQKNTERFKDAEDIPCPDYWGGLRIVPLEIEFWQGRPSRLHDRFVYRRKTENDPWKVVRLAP

SMILES	target	test	test system	setting	endpoint	result
Cc1ncc(COP(=O)(O)O)c(C=O)c1O	PDX3 (Saccharomyces cerevisiae, UniProt P38075, E122V/K222Q/L206S)	PNP oxidase activity, inhibitor	–	together with: 4 mM PNP substrate, 0.4 mM FMN	IC50	2700 µM
O=c1nc(SCc2cc(F)cc(C(F)(F)F)c2)nc(SCc2ccc3sccc3c2)[nH]1	TOP2A (Homo sapiens, UniProt P11388)	ATPase activity, ATP-competitive inhibitor	–	together with: ATP 0.1 mM	IC50	13.1 µM
O=C(NCCCCCCO)c1cc2ccccc2oc1=O	PDE6D (Homo sapiens, UniProt O43924)	–	–	–	IC50	855 µM
CC(C)C[C@H](NC(=O)CN1CCOCC1)C(=O)N[C@@H](CC(C)C)C(=O)N[C@H](/C=C/S(C)(=O)=O)Cc1ccc(CN)cc1	PSMB6	competitive ABPP	Raji cell lysate	–	IC50	> 10 µM
Cc1nc(F)ccc1-c1cc(Cn2ccn(C)c2=N)cc(C(=O)NCc2ccc(Cl)c(Cl)c2)c1	WD repeat-containing protein 5, MLL3 complex (WDR5, Homo sapiens, UniProt P61964)	MLL3 methyltransferase activity, inhibitor	–	together with: H3 peptide substrate	IC50	> 20 µM
Cc1ncc(C(=O)N[C@@H](CC2CCCCC2)C(=O)N[C@@H](CC2CCCCC2)C(=O)N[C@H](/C=C/S(C)(=O)=O)Cc2ccc(CN)cc2)s1	PSMB6	competitive ABPP	Raji cell lysate	–	IC50	> 10 µM
Cc1ccc(CNC(=S)N/N=C/c2ccc(N3CCC(O)CC3)cc2)cc1	CA1	enzyme activity, inhibitor	–	–	IC50	0.721 µM
Cc1nn(C)c2ncc(C(=O)NCc3ccccc3)c(Cl)c12	MDH2 (Sus scrofa, UniProt P00346)	enzyme activity, reporter counter-screen	–	native enzyme	IC50	> 63 µM
Cc1ncc(C(=O)N[C@@H](CC2CCCC3CCCCC32)C(=O)N[C@@H](CC(C)C)C(=O)N[C@H](/C=C/S(C)(=O)=O)Cc2ccc(CN)cc2)s1 (stereo partly drawn)	PSMB6	competitive ABPP	Raji cell lysate	–	IC50	> 10 µM
CNCC(=O)O	Sodium- and chloride-dependent glycine transporter 2 (Homo sapiens, UniProt Q9Y345, S479G)	[3H]glycine uptake, inhibitor	–	–	IC50	67 µM
COc1c(Cl)cccc1Nc1c(-c2ccncc2OC[C@@H]2COCCO2)[nH]c2c1C(=O)NCC2	YES1	kinase activity, inhibitor, TR-FRET	–	median value, together with: ATP 2 mM	IC50	5.88 µM
Cc1nc2ccc(Br)cc2c(=O)n1/N=C/c1ccc(C(=O)O)cc1	PLA2G5	enzyme activity, inhibitor, colorimetric	–	–	IC50	33 ± 1.37 µM
COc1ccc2c(c1)c1c(C)c3c[n+](C)ccc3c(C)c1n2C	Toll-like receptor 3	reporter gene, inhibitor	HEK-Blue hTLR3	together with: poly(I:C)	IC50	1.92 ± 0.07 µM
CC[C@@H]1[C@H](F)C(=O)N[C@@H]1COc1nccc2cc(C(N)=O)c(OC)cc12	MAP4K5 (Homo sapiens, UniProt Q9Y4K4)	ATP probe binding, KiNativ profiling, refers to: KHS1 Lys1 probe site	THP-1 cell lysate	–	IC50	> 5 µM
O=P(O)(O)O[C@@H]1[C@H](O)[C@H](O)[C@@H](OP(=O)(O)O)[C@H](OP(=O)(O)O)[C@H]1O	Inositol-tetrakisphosphate 1-kinase (Homo sapiens, UniProt Q13572)	phosphatase activity, inhibitor, luciferase-coupled	–	–	IC50	0.23 ± 0.05 µM
OC1CCN(c2ccc(/C=N/NC(=S)NC3CCCCC3)cc2)CC1	CA1	enzyme activity, inhibitor	–	–	IC50	0.529 µM
O=C(O)CCc1nccc2c1[nH]c1ccccc12	SLC22A12 (Homo sapiens, UniProt Q96S37)	14C-uric acid uptake, inhibitor	HEK293 expressing URAT1	–	IC50	no inhibition
COc1cc(/C=N/n2c(C)nc3ccc(C)cc3c2=O)ccc1OCc1ccccc1	PLA2G5	enzyme activity, inhibitor, colorimetric	–	–	IC50	70.3 ± 1.89 µM
C[C@H](O)C(=O)C1=Nc2c(nc(N)[nH]c2=O)NC1	ABCG2	inhibitor	–	estimated	IC50	648 µM
Cc1ccc(NC(=S)N/N=C/c2cn(S(=O)(=O)c3ccc(C)cc3)c3ccccc23)cc1	mushroom tyrosinase	enzyme activity, inhibitor	–	together with: L-DOPA substrate	IC50	14.3 ± 0.3 µM
CC(C)C[C@@H](N)[C@H](O)C(=O)N[C@H](C(=O)N[C@H](C(=O)N[C@@H](CC(=O)O)C(=O)O)C(C)C)C(C)C	rat neuron-specific aminopeptidase	enzyme activity, inhibitor	–	–	IC50	0.05 µM
C=CC(=O)Nc1cccc(Oc2nc(Nc3ccc(N4CCN(C)CC4)cc3)nc3ccoc23)c1	SYK (Homo sapiens, UniProt P43405)	–	–	–	IC50	0.103 µM
CCn1c(-c2nc3cc(C(=O)N4CCC[C@@H](N)C4)cc(OC)c3n2C)cc2cccnc21	CHRNA1 (Homo sapiens, UniProt P02708)	intracellular calcium, antagonist, fluorescence	–	–	IC50	2 µM
C#Cc1ccc2ccccc2c1	Cytochrome P450 2A6 (CYP2A6, Homo sapiens, UniProt P11509)	coumarin 7-hydroxylation	–	20 min, pH 7.4, 37 °C, together with: coumarin 10 µM	IC50	8.8 µM

SMILES	target	test	test system	setting	endpoint	result
COc1cc2c(cc1OC)C1CC(=O)C(CC(C)C)CN1CC2 (stereo not drawn)	SLC18A2 (Homo sapiens, UniProt Q05940)	binding, competition binding	cell membranes	4 °C, together with: 3 nM [3H]dihydrotetrabenazine	IC50	0.165 µM
Cc1ncc(C(=O)N[C@@H](CC(C)C)C(=O)N[C@@H](CC2CCC(C)CC2)C(=O)N[C@H](/C=C/S(C)(=O)=O)Cc2ccc(CN)cc2)s1 (stereo partly drawn)	PSMB6	competitive ABPP	Raji cell lysate	–	IC50	> 10 µM
COc1ccc(NC(=S)N/N=C/c2cn(S(=O)(=O)c3ccc(C)cc3)c3ccccc23)cc1	mushroom tyrosinase	enzyme activity, inhibitor	–	together with: L-DOPA substrate	IC50	29.4 ± 0.6 µM
COc1ccc(C[C@H](NC(=O)[C@H](C)NC(=O)CN2CCOCC2)C(=O)N[C@@H](CC2CCC(OC)CC2)C(=O)[C@@]2(C)CO2)cc1 (stereo partly drawn)	PSMB6	competitive ABPP	Raji cell lysate	–	IC50	> 10 µM
O=C(O)CN1Cc2ccccc2C1=O	Ubiquitin carboxyl-terminal hydrolase 39 ZnF-UBD domain	–	–	–	Kd	> 1000 µM
COc1ccc2c3c([nH]c2c1)[C@H](CC(C)C)N1C(=O)[C@H](CC(=O)N2CCCCC2)NC(=O)[C@@H]1C3	ABCG2	inhibitor, refers to: protoporphyrin IX	A549	2 h, together with: 1 mM ALA	IC50	4.07 µM and 3.84 µM and 1.51 µM
Cc1cnc(-c2ccc(-c3ccc(NC(=O)Nc4c(F)cc(F)cc4F)cc3F)c3c2C(=O)NC3)[nH]1	YES1	enzyme activity, inhibitor, mobility shift	–	together with: ATP 1 mM	IC50	0.362 µM
O=c1c2ccccc2nc2n1CCc1c-2[nH]c2ccccc12	Cytochrome P450 3A2 (Cyp3a2, Rattus norvegicus, UniProt P05183)	enzyme activity, inhibitor	Sprague-Dawley rat, male, liver microsomes	30 (unit not given), pH 7.4, together with: testosterone 100 µM	IC50	16.7 µM
O=C(O)COc1cnc2ccccc2n1	Ubiquitin carboxyl-terminal hydrolase 39 ZnF-UBD domain	–	–	–	Kd	> 1000 µM
CN1CCN(c2ccc(Nc3ncc4cc(C#N)c(=O)n(C5CCCC5)c4n3)cc2)CC1	Cyclin-dependent kinase 4, with cyclin D3 (CDK4, Homo sapiens, UniProt P11802)	–	–	–	IC50	0.0341 µM
[Fe+2].c1ccc(CN(Cc2ccccn2)C(c2ccccn2)c2ccccn2)nc1	Proteasome subunit beta type-6, caspase-like site (PSMB6, Homo sapiens, UniProt P28072)	caspase-like activity, inhibitor, purified 20S proteasome	–	pH 7.4, together with: 20 µM Z-LLE-AMC	IC50	> 1000 µM
COc1ccc(C[C@H](NC(=O)[C@H](C)NC(=O)CN2CCOCC2)C(=O)N[C@@H](CC2CCC(C3CCCCC3)CC2)C(=O)[C@@]2(C)CO2)cc1 (stereo partly drawn)	PSMB6	inhibitor, competitive ABPP	Raji cell lysate	–	IC50	> 100 µM
Cc1c(OCC(F)(F)F)ccnc1CSc1nc2ccccc2[nH]1	cytochrome bc1 complex (Mycolicibacterium smegmatis, UniProt A0R052+I7GD61)	oxygen consumption, inhibitor, Clark electrode	Mycolicibacterium smegmatis, purified supercomplex	–	IC50	0.5 ± 0.2 µM
N#Cc1ccc(COc2cccc(C3CCN(Cc4nc5ccc(C(=O)O)cc5n4C[C@@H]4CCO4)CC3)n2)c(F)c1	PDE10A (Homo sapiens, UniProt Q9Y233)	enzyme activity	–	–	IC50	0.22 µM
O=C(NCc1cc(Cl)cc(Cl)c1)c1cccc(Cn2ccnc2)c1	WD repeat-containing protein 5, MLL1 complex (WDR5, Homo sapiens, UniProt P61964)	MLL1 methyltransferase activity, inhibitor	–	together with: H3 peptide substrate	IC50	> 3 µM
Cc1ncc(C(=O)N[C@@H](CCC2CCCCC2)C(=O)N[C@@H](CC(C)C)C(=O)N[C@H](/C=C/S(C)(=O)=O)Cc2ccc(CN)cc2)s1	PSMB6	competitive ABPP	Raji cell lysate	–	IC50	> 10 µM
CN1CCN(c2cnc3c(cc(C(=O)NCc4ccc(Cl)cc4)c(=O)n3CC(=O)N3CC(C)(F)C3)n2)C1=O	KCNH2	ion current, automated patch clamp	–	–	IC50	33.2 µM
CC(=O)OCc1ccc2[nH]c3c(C)c4ccncc4c(C)c3c2c1	Toll-like receptor 3	reporter gene, inhibitor	HEK-Blue hTLR3	together with: poly(I:C)	IC50	0.09 ± 0.01 µM
CCN(CC)CCNC(=O)C1CCN(c2ccc3nnc(-c4cccc(C)c4)n3n2)CC1	CatSper channel complex (Homo sapiens, UniProt Q7RTX7+Q86XQ3+Q8NEC5+Q96P56)	calcium influx, inhibitor, FLIPR	human sperm	together with: high pH, high potassium	IC50	11 µM
O=c1ccn([C@@H]2O[C@H](COP(=O)(O)OP(=O)(O)OP(=O)(O)O)[C@@H](O)[C@H]2O)c(=O)[nH]1	dGTP triphosphohydrolase (Leeuwenhoekiella blandensis, UniProt A3XHN1)	dGTPase activity, inhibitor, enzyme-coupled	–	together with: 1 mM dGTP	IC50	~3800 µM
OC1CCN(c2ccc(/C=N/NC(=S)Nc3ccccc3)cc2)CC1	CA1	enzyme activity, inhibitor	–	–	IC50	0.55 µM
Cc1ccc(S(=O)(=O)n2cc(/C=N/NC(=S)Nc3ccc(Cl)cc3)c3ccccc32)cc1	mushroom tyrosinase	enzyme activity, inhibitor	–	together with: L-DOPA substrate	IC50	8.31 ± 0.2 µM
CC1(C)CN(C(=O)Cn2c(=O)c(C(=O)NCc3ccc(Cl)cc3)cc3nccnc32)C1	KCNH2	ion current, automated patch clamp	–	–	IC50	4.85 µM
COc1ccc(C(=O)Nc2ccc(-c3nc4ccccc4[nH]3)cc2)c(OC)c1	Tyrosine-protein kinase SYK, with FCER1G (SYK, Homo sapiens, UniProt P43405)	inhibitor, TR-FRET	–	counter screen	IC50	> 100 µM
